Published values from different studies.
Each line is one published result; not all experiments were run side by side. “And” joins repeats or separate records; there may be more than shown. ± gives the spread as reported.
UCHL1: Ubiquitin carboxyl-terminal hydrolase isozyme L1 (UCHL1, Homo sapiens, UniProt P09936)
Voltage-dependent P/Q-type calcium channel subunit alpha-1A: Voltage-dependent P/Q-type calcium channel subunit alpha-1A (Homo sapiens, UniProt O00555)
Nuclear receptor subfamily 1 group I member 3: Nuclear receptor subfamily 1 group I member 3 (Homo sapiens, UniProt Q14994)
ADRA2C: Alpha-2C adrenergic receptor (ADRA2C, Homo sapiens, UniProt P18825)
T1: G-quadruplex DNA, intermolecular, 6-nt strands; TTAGGG

SMILES | tested on | assay | test system | conditions | how to read | measurement | result
O=C(Nc1cccc(-c2nnco2)c1)N1CCSSCC1 | UCHL1 | covalent, intact protein LC-MS |  | 12.5 µM |  | labelling | 18.8%
CC(=O)N[C@H](C(=O)N1C[C@H](O)C[C@H]1C(=O)NCc1ccc(-c2scnc2C)cc1)C(C)(C)SCCCCCCNC(=O)C[C@@H]1N=C(c2ccc(Cl)cc2)c2c(sc(C)c2C)-n2c(C)nnc21 | BRD4/VHL, BD1; with elongins B/C (Homo sapiens, UniProt O60885+P40337) | ternary complex binding, ITC |  | 25 °C, added: VHL-ElonginB-ElonginC titrated into compound:PROTAC:Brd4^BD1 complex |  | ΔG | -36.8 ± 0.837 kJ/mol
CCCN(CCC)CCc1cccc2c1CC(=O)N2 | Voltage-dependent P/Q-type calcium channel subunit alpha-1A | ion current, antagonist, automated patch clamp |  |  |  | IC30 | > 30 µM
COc1cc(Nc2ncc3c(n2)-c2ccc(Cl)cc2C(c2c(F)cccc2OC)=NC3)ccc1C(=O)O | MAP2K1 | kinase activity |  | 1 µM |  | remaining activity | 105%
Oc1ccc(/C=C/c2cc(O)cc(O)c2)cc1 | O-methyltransferase (Sorghum bicolor, UniProt A0A1B6PFV1) | ITC |  | concentration not given, exothermic site, two-site model, added: SFG |  | binding stoichiometry | 0.39
N#CC(=Cc1csc(-c2ccsc2)n1)C(=O)NC1CC1 | UCHL1 | covalent, intact protein LC-MS |  | 12.5 µM |  | labelling | 23%
COc1cccc2c1OCCC2NS(=O)(=O)c1csnc1C(=O)O (centres unmarked) | malate dehydrogenase | enzyme activity, inhibitor |  | 200 µM, pH 7.0, 1% DMSO, aggregation counter-screen |  | remaining activity | 83%
N#CC(=Cc1cccc(F)c1)C(=O)NCCc1ccccc1 | UCHL1 | covalent, intact protein LC-MS |  | 12.5 µM |  | labelling | 30.3%
CCc1oc2ccccc2c1C(=O)c1cc(Br)c(O)c(Br)c1 | SLC22A12 (Homo sapiens, UniProt Q96S37) | inhibitor | HEK-293T | 100 µM, 10 min, 37 °C, added: [14C]urate 10 µM |  | normalized urate uptake | 1.13e-06 and -0.000733 and 0.000732
CC(=O)N1CCC[C@H]1C(=O)NCCNC(=O)CCn1c(=O)[nH]c(=O)c2ccccc21 | TNKS (Homo sapiens, UniProt O95271) | enzyme activity, inhibitor |  |  |  | ligand efficiency | 0.21
C=CC(=O)N1CCC(C(=O)NCC(=O)N2CCN(c3nc(-c4cnc(N)nc4C(F)F)nc(N4CCOCC4)n3)CC2)CC1 | MET (Homo sapiens, UniProt P08581, M1250T) | KINOMEscan |  | 1 µM |  | remaining binding | 95%
Nc1nc2c(ncn2[C@@H]2O[C@H](COP(=O)(O)O)[C@@H](O)[C@H]2O)c(=O)[nH]1 | GUK1 (Homo sapiens, UniProt Q16774, Y53A) | enzyme activity, NADH-coupled |  | 1000 µM |  | reaction rate | 6.08 s⁻¹ and 7.11 s⁻¹ and 6.49 s⁻¹
CC[C@@H]1[C@H](F)C(=O)N[C@@H]1COc1nccc2cc(C(N)=O)c(OC)cc12 | MAP3K4 (Homo sapiens, UniProt Q9Y6R4) | ATP-site probe binding, ActivX profiling | THP-1 cell lysate | 0.2 mM, Lys2 site |  | inhibition | -1.4%
COc1cccc2c(Nc3ccc4[nH]c(C(=O)N/N=C/c5ccc(SC)cc5)cc4c3)cc(C)nc12 | Nuclear receptor subfamily 1 group I member 3 | reporter gene, Gal4 hybrid reporter |  | 3 µM | relative to: vehicle | activation | 1.08 fold
O=c1nc(SCc2cc(F)cc(C(F)(F)F)c2)nc(SCc2ccc3sccc3c2)[nH]1 | TOP2B (Homo sapiens, UniProt Q02880) | decatenation |  | 15.6 µM |  | mean decatenated DNA | 0.88%
C=CC1=C(C)C2=Cc3c(C=C)c(C)c4[n]3[Fe]([Cl])[n]3c(c(C)c(CCC(=O)O)c3=CC3=NC(=C4)C(C)=C3CCC(=O)O)=CC1=N2 | T1, G-quadruplex DNA, intermolecular, 6-nt strands | UV-vis titration, Hill fit |  | KCl 100 mM, apparent, added: hemin 2 µM |  | Kd | 0.437 µM
O=C(CCl)Nc1ncc(Cc2ccccc2Cl)s1 | UCHL1 | covalent, intact protein LC-MS |  | 12.5 µM |  | labelling | 38.9%
C=CC(=O)N1CCC(COCC(=O)N2CCN(c3nc(-c4cnc(N)nc4C(F)F)nc(N4CCOC[C@@H]4C)n3)CC2)CC1 | HASPIN (Homo sapiens, UniProt Q8TF76) | KINOMEscan |  | 1 µM |  | remaining binding | 71%
Cc1cc(Oc2ncccc2CN2CCN(c3cccc(Cl)c3)CC2)ccc1-c1c(C)c(=O)[nH]c(=O)n1C | ADRA2C | binding, radioligand binding |  | added: [3H]rauwolscine | relative to: Ki alpha2A over Ki alpha2C | selectivity ratio | 8
COc1cc(F)c(NS(=O)(=O)c2cc(Cl)ccc2O)cc1OC | malate dehydrogenase | enzyme activity, inhibitor |  | 200 µM, pH 7.0, 1% DMSO, aggregation counter-screen |  | remaining activity | 97%
CCCCCCCC(=O)c1cc(OC)c(OC)c(OC)c1CC(=O)OCC | Nuclear receptor subfamily 1 group I member 3 | reporter gene, Gal4 hybrid reporter |  | 10 µM | relative to: vehicle | activation | 1.2 fold
COc1cc2c(cc1OC)C(=O)C(CC1CCN(Cc3ccccc3)CC1)C2 (centres unmarked) | Voltage-dependent P/Q-type calcium channel subunit alpha-1A | ion current, antagonist, automated patch clamp |  |  |  | IC30 | 16.3 µM

SMILES | tested on | assay | test system | conditions | how to read | measurement | result
C(=N\Nc1nc(Nc2ccccc2)nc(N2CCOCC2)n1)/c1c[nH]c2ccccc12 | Trypanosoma cruzi | reporter translation, Renilla luciferase mRNA translation | cell-free extract | 40 µM | relative to: DMSO | inhibition | 4.8%
Nc1ncnc2c1ncn2[C@@H]1O[C@H](COP(=O)(O)OP(=O)(O)OP(=O)(O)O)[C@@H](O)[C@H]1O | P2X purinoceptor 7 (P2rx7, Rattus norvegicus, UniProt Q64663, Q143A/R125A) | ion current, agonist, two-electrode voltage clamp | Xenopus laevis oocytes | 2 µM | relative to: highest concentration response | normalized current | 0
O=C(O)c1ccc(O)cc1 | BEST1 (Homo sapiens, UniProt O76090) | whole-cell patch clamp | HEK293 transiently expressing channel | concentration not given, membrane potential -20 mV |  | current density | -9.14 pA/pF and -5.91 pA/pF and -7.72 pA/pF and -6.69 pA/pF and -8.7 pA/pF and -5.33 pA/pF and -4.38 pA/pF
O=C(CCl)Cc1ccc(F)cc1Cl | UCHL1 | covalent, intact protein LC-MS |  | 12.5 µM |  | labelling | 31.6%
Cc1cc(Oc2ncccc2CN2CCN(c3ccc([N+](=O)[O-])cc3C(F)(F)F)CC2)ccc1-c1c(C)c(=O)[nH]c(=O)n1C | ADRA2C | binding, radioligand binding |  | added: [3H]rauwolscine | relative to: Ki alpha2B over Ki alpha2C | selectivity ratio | 3
Nc1ncnc2c1ncn2[C@@H]1O[C@H](COP(=O)(O)CP(=O)(O)OP(=O)(O)O)[C@@H](O)[C@H]1O | P2X purinoceptor 1 (P2RX1, Homo sapiens, UniProt P51575, D170A) | calcium influx |  | 3.16 µM | relative to: ionomycin response | calcium influx | 24.6% and 17% and 17.6% and 18.7%
CC/C=C(\C)C=O | Uncharacterized protein PH0856 (Pyrococcus horikoshii, UniProt O58586) | substrate, biocatalytic transformation |  | pH 6.2, 30 °C, anaerobic, added: NADPH |  | conversion | 98%
CO[C@H]1O[C@H](COS(=O)(=O)O)[C@@H](O[C@@H]2O[C@@H](C(=O)O)[C@@H](O[C@H]3O[C@H](COS(=O)(=O)O)[C@@H](O[C@@H]4O[C@H](C(=O)O)[C@@H](O[C@H]5O[C@H](COS(=O)(=O)O)[C@@H](O)[C@H](O)[C@H]5NS(=O)(=O)O)[C@H](O)[C@H]4O)[C@H](OS(=O)(=O)O)[C@H]3NS(=O)(=O)O)[C@H](O)[C@H]2OS(=O)(=O)O)[C@H](O)[C@H]1NS(=O)(=O)O | Beta-2-glycoprotein 1, domain V (APOH, Homo sapiens, UniProt P02749, V266L) | isothermal titration calorimetry |  | 298 K, added: 100 mM NaCl |  | association constant | 68100 ± 9340 M⁻¹
Cc1cc(Oc2ncccc2CN2CCN(c3ccc(Cl)cc3)CC2)ccc1-c1c(C)c(=O)[nH]c(=O)n1C | ADRA2C | binding, radioligand binding |  | added: [3H]rauwolscine | relative to: Ki alpha2A over Ki alpha2C | selectivity ratio | 7
Oc1ccc([C@@H]2c3c(O)cc(O)cc3[C@@H]3c4c(cc(O)c5c4[C@@H]2[C@H](c2ccc(O)cc2)[C@H]5c2cc(O)cc4c2[C@@H](c2cc(O)cc(O)c2)[C@H](c2ccc(O)cc2)O4)O[C@H]3c2ccc(O)cc2)cc1 | Alpha-amylase 1A (AMY1A, Homo sapiens, UniProt P0DUB6) | enzyme activity, inhibitor | salivary | concentration not given |  | Vmax | 687 ± 221 µmol/min
CN(C)C(=O)C(CCN1CCC(O)(c2ccc(Cl)cc2)CC1)(c1ccccc1)c1ccccc1 | Calcium-activated potassium channel subunit alpha-1, with LRRC26 γ1 subunit (KCNMA1, Homo sapiens, UniProt Q12791) | ion current, inside-out patch, mean of individual fits | BKα/γ1 channel | 10 µM, added: nominally 0 Ca2+ |  | V1/2 | -7 ± 5 mV
CCN(C)C(=O)Oc1cccc([C@H](C)N(C)C)c1 | Voltage-dependent P/Q-type calcium channel subunit alpha-1A | ion current, antagonist, automated patch clamp |  |  |  | IC30 | > 30 µM
N#CC(=Cc1ccccc1Cl)C(=O)Nc1ccc2c(c1)OCCO2 | UCHL1 | covalent, intact protein LC-MS |  | 12.5 µM |  | labelling | 34.4%
CCCN1C[C@H](CSC)C[C@@H]2c3cccc4[nH]cc(c34)C[C@H]21 | Voltage-dependent P/Q-type calcium channel subunit alpha-1A | ion current, antagonist | HEK293 | 10 µM |  | inhibition | 15%
CC1CS(=O)(=O)CCN1/N=C/c1ccc([N+](=O)[O-])o1 (centres unmarked) | Trypanosoma cruzi | reporter mRNA translation, Renilla luciferase reporter | cell extract | 40 µM |  | inhibition | 0.2%
CC1CC1(C(=O)O)C(=O)NCc1ccc(Sc2ccccc2)cc1 (centres unmarked) | malate dehydrogenase | enzyme activity, inhibitor |  | 200 µM, pH 7.0, 1% DMSO, aggregation counter-screen |  | remaining activity | 97%
C=CC(=O)N1CCC[C@@H](n2nc(-c3ccc(Oc4ccccc4)cc3)c3c(N)ncnc32)C1 | Tyrosine-protein kinase STYK1 (STYK1, Homo sapiens, UniProt Q6J9G0) |  |  | 1 µM |  | remaining activity | 163%
CC[C@@H](C)[C@@H](NC(=O)[C@@H](Cc1ccc(O)cc1)NC(=O)[C@H]1CCCN1C(=O)[C@@H](CCCNC(=N)N)NC(=O)[C@H](N)Cc1c[nH]cn1)C(=O)N[C@H](C)C(=O)N[C@H](Cc1c[nH]cn1)C(=O)N[C@H](CCCNC(=N)N)C(=O)N[C@@H](C(=O)N[C@H](Cc1ccc(O)cc1)C(=O)N[C@H](CO)C(=O)N[C@H](Cc1ccccc1)C(N)=O)C(C)C | Transferrin receptor protein 1 (Tfrc, Mus musculus, UniProt Q62351) | flow cytometry | RAW264.7 | 2 h, pH 6, replicate 3, unit not given | relative to: 0 h | surface TFRC expression | 0.876
Cc1ccc(C=C(C#N)C(=O)Nc2ccccc2C(F)(F)F)cc1 | UCHL1 | covalent, intact protein LC-MS |  | 12.5 µM |  | labelling | 9.26%
c1coc(-c2n[nH]cc2-c2ccnc3ccccc23)c1 | Serine/threonine-protein kinase BUR1 (CRK1, Candida albicans, UniProt Q9Y7W4) | kinase binding, MIB/MS competition | Candida albicans lysate | 10 µM | relative to: DMSO, negative = stronger binding | log2 fold change | -0.07
O=C1NCCN1CCN1CCC(c2cn(-c3ccc(F)cc3)c3ccc(Cl)cc23)CC1 | Voltage-dependent P/Q-type calcium channel subunit alpha-1A | ion current, antagonist | HEK293 | 10 µM |  | inhibition | 77%
O=c1nc(SCc2cc(F)cc(C(F)(F)F)c2)nc(SCc2ccc3nc(Cl)ccc3c2)[nH]1 | TOP2A (Homo sapiens, UniProt P11388) | DNA cleavage |  | 31.25 µM |  | mean linear DNA | 0%

A few entries again:
SMILES | tested on | assay | test system | conditions | how to read | measurement | result
CO[C@H]1O[C@H](COS(=O)(=O)O)[C@@H](O[C@@H]2O[C@@H](C(=O)O)[C@@H](O[C@H]3O[C@H](COS(=O)(=O)O)[C@@H](O[C@@H]4O[C@H](C(=O)O)[C@@H](O[C@H]5O[C@H](COS(=O)(=O)O)[C@@H](O)[C@H](O)[C@H]5NS(=O)(=O)O)[C@H](O)[C@H]4O)[C@H](OS(=O)(=O)O)[C@H]3NS(=O)(=O)O)[C@H](O)[C@H]2OS(=O)(=O)O)[C@H](O)[C@H]1NS(=O)(=O)O | Beta-2-glycoprotein 1, domain V (APOH, Homo sapiens, UniProt P02749, V266L) | isothermal titration calorimetry |  | 298 K, added: 100 mM NaCl |  | association constant | 68100 ± 9340 M⁻¹
Cc1cc(Oc2ncccc2CN2CCN(c3ccc([N+](=O)[O-])cc3C(F)(F)F)CC2)ccc1-c1c(C)c(=O)[nH]c(=O)n1C | ADRA2C | binding, radioligand binding |  | added: [3H]rauwolscine | relative to: Ki alpha2B over Ki alpha2C | selectivity ratio | 3
Nc1ncnc2c1ncn2[C@@H]1O[C@H](COP(=O)(O)CP(=O)(O)OP(=O)(O)O)[C@@H](O)[C@H]1O | P2X purinoceptor 1 (P2RX1, Homo sapiens, UniProt P51575, D170A) | calcium influx |  | 3.16 µM | relative to: ionomycin response | calcium influx | 24.6% and 17% and 17.6% and 18.7%
